Experimental data pooled from the literature.
A part holds a random share of what one study measured.

Sample 1
Target: Ras GTPase-activating protein-binding protein 1, C-terminal RGG region (G3BP1, Homo sapiens, UniProt Q13283)
UniProt Q13283, sequence (whole entry, looked up): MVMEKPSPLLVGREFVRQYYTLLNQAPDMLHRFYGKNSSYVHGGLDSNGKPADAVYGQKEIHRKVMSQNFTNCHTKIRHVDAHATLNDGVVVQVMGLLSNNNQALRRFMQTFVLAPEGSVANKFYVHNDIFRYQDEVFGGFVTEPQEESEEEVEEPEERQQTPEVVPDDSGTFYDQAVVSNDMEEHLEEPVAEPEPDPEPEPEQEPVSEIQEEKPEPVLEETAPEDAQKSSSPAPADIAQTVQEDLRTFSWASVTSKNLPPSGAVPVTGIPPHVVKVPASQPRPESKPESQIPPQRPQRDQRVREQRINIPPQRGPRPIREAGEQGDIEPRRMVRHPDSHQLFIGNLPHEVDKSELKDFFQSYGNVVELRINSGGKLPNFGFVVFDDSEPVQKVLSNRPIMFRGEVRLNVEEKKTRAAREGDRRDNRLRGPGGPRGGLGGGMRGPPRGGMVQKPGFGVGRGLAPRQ
Technique: RNA Bind-n-Seq
Form: RNA
Sample: in vitro
Concentration: 1 µM
Setting: whole 134-nt RNA, ends assumed
Added: 150 mM KCl
Relative to: input library
Reading: higher = stronger binding
The log2 enrichment of `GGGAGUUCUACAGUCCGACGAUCCUGUGCUACACAUCGUAUGUACCGAAUCGGGGAAAGGGGUUUUUUUGGGGUUUUUUUGGGGAAAGUAUUAUGUUACGCCGUUCGGAUCUGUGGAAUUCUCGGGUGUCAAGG` is reported as -0.289.
`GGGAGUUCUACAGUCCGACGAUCUUCACUCUUUGAAGGAACGUGGUACUUAGUUAGGGUGGAUGAAAAGCACAGAAGAACUUACGCUCGGCGUCCCACUCCAAAUGAUGACACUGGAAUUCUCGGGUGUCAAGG` has a log2 enrichment of -0.0571.
With `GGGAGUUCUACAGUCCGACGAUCCACAGACAACACGCACCCACACAGACACAGAGGGAAGGGGUUGGGAUGGGGACAGGGUGCACAGCAGGGCGGGGUAGGAGCCCAGCCCCUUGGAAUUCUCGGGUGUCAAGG` the log2 enrichment was -0.807.
`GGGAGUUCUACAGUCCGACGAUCCAUGUUGAAAGACAUGCUUUUAUUUUUUUGUAAAACAAUAUAGGAGCUGUGUCUACUAUUAAAAGUGAAACAUUUUGGCAUGUUUGUUAAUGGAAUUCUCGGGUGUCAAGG` gave a log2 enrichment of -2.47.
`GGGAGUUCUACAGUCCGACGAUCACCAUGCAGGUGGGCAUCUUUGGGAAGUGGGGCAAGGGGGGGAUAGGGAGGGGGGUAACACUUUGGGAACAGGUGGUUCCAGGUCGUUUCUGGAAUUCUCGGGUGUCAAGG` has a log2 enrichment of 2.68.
`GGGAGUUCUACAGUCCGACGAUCGCAGGAAGUAAAAACAAAUGGAAAUGCUUCGGAUAGUGGCAGGGGUGGGGGUUGCUAAGGAAAGGGUGGGAUGGAAAUGGGUAAAGAGUUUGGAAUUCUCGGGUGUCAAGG` has a log2 enrichment of 1.49.
`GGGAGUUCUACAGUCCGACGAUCCUCAAGUCCUGUGCUACACAUCGUAUGUACCGAAUCGGGGUUGGGUUGGGUUGGAAAGUAUUAUGUUACGCCGUUCGGAUCUGCACUUCCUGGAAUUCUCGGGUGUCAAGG` has a log2 enrichment of 0.0917.
`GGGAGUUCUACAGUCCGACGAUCUCCUCAAGUCCUGUGCUACACAUCGUAUGUACCGAAUCGGGCGGGCGGCGGAAAGUAUUAUGUUACGCCGUUCGGAUCUGCACUUCCAGCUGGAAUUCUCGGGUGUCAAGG` has a log2 enrichment of -0.93.
`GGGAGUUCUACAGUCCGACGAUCUGGGAGGUGGAUUUUGUUUAUUUUUUUAGGUCAUUUCCAGGGGUGGGAAUUUUUUUUUAAUAUGUGUCAUGAAUAAAGUUGUUUUUGAAAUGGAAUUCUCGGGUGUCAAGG` gave a log2 enrichment of 3.58.
The log2 enrichment of `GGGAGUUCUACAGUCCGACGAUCGUCCUGUGCUACACAUCGUAUGUACCGAAUCGGGUUUUUGGGUUUGGGAAAAAAAGGGAAAGUAUUAUGUUACGCCGUUCGGAUCUGCACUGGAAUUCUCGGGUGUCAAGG` is reported as -0.886.

Sample 2
Target: RNA binding protein fox-1 homolog 2, RRM domain, GST-SBP tag (RBFOX2, Homo sapiens, UniProt O43251-10, residues 100-194)
Technique: RNA Bind-n-Seq
Form: RNA
Sample: in vitro
Concentration: 365 nM
Setting: natural RNA segment, single round, ends assumed
Relative to: no-protein control
Reading: higher = stronger binding
Residues (chain): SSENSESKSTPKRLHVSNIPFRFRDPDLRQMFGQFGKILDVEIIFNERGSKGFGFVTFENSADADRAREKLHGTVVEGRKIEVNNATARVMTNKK
For `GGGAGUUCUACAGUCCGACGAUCGCCAGCUUAUUUUUCUGGUACUUGUAUUUUCACAUGUUAAAUGAUCUUUAUAUAUGUUGAAUUAACAAAUAUUUUGAGUUUCUGAGAAAAAACAAAACAUAUUAAUGGUAUGGAAUUCUCGGGUGCCAA`, “RBNS enrichment (R)” read 0.462.
`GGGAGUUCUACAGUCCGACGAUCGUUUAACACGAUAUCAGCACAUUCCCUUGUCAUCAUCAAGGUGUUGGCUCAGAUUUAUUCUUAAUUGGAUGUUUAAAGCAUGUACUACCUUGUUACAGUUGGUUUAGUGUUGGAAUUCUCGGGUGCCAA` — result for “RBNS enrichment (R)”: 1.28.
For `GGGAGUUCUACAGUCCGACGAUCAAUUCUGCUCCCAAGCCCUUGUAUCUUGGGCUUCAUUUUAGGCUCAUGUGUCAGAUCUGCAUGCAUUGCUUGCAUUUUUCUGGUAUCUGAAUGUUGGUUCCUUGUUCCAGUGGAAUUCUCGGGUGCCAA`, “RBNS enrichment (R)” read 0.647.
`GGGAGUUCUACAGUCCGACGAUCGAACAUUUGAAAUCCAUUUUGAUAAACCUGCUGUUAAUGUUUUUUCCCCCCUUGUGAAUGUUUUCUAACUUUGUCUUGGUAAUUGCAAUUUAACUAGGUGCGGUGGCUACUGGAAUUCUCGGGUGCCAA` — result for “RBNS enrichment (R)”: 0.912.
Under “RBNS enrichment (R)”, `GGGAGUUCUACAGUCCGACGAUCCAUACACCUGAGAGGAAUUGAGGGAGUAUUGGUGUCUAGGUUGUCAUGUUUCUGUUUUGUGACACAGUGGAUGGAAAGGUUUGUCCUCUUCCUACUAUAGCAUGAACCCUUGGAAUUCUCGGGUGCCAA` is recorded as 0.334.
For `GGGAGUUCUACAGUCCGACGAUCGGCUGCCCAACCCUGACUCAGAGAAUGAGGGUGGCUUGGACCCCUGGGAAUCAGGCCGCCGAGGGCUGAGCUCCAGAGCCGCACCAUCUGCCACAAACAGAAUUCGAGACUGGAAUUCUCGGGUGCCAA`, “RBNS enrichment (R)” read 0.356.
`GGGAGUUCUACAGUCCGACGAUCAGCUUCUCGGCAUCAGCGCAGCUGCACCACAGGCUGAGCUUACAGAGCUUCAGGCCCAGACUGGGGCACCGAAGCUUUCAGCUUUGGGGGUCAUUCUACCAACAAUCAGUUGGAAUUCUCGGGUGCCAA` — result for “RBNS enrichment (R)”: 0.318.
`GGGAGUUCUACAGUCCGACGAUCACAGGGGCUACCUUACCAGUAUAAAGAGCUGAUAACAGUACUCAGAAGAAUCUGUGAACAAAUACUUGAAAAUGGGUUCAAUGUAGACUGCCAUUAUGUGUGGUCUUCCCUGGAAUUCUCGGGUGCCAA`: “RBNS enrichment (R)” 0.239.

Sample 3
Target: Sal-like protein 4, full length isoform B (SALL4, Homo sapiens, UniProt Q9UJQ4-2, residues 1-616)
Technique: universal PBM
Form: double-stranded DNA, one strand shown
Sample: in vitro
Concentration: not given
Setting: 8-mer, flanks averaged, mean of replicates
Reading: higher = stronger binding
Target sequence (chain): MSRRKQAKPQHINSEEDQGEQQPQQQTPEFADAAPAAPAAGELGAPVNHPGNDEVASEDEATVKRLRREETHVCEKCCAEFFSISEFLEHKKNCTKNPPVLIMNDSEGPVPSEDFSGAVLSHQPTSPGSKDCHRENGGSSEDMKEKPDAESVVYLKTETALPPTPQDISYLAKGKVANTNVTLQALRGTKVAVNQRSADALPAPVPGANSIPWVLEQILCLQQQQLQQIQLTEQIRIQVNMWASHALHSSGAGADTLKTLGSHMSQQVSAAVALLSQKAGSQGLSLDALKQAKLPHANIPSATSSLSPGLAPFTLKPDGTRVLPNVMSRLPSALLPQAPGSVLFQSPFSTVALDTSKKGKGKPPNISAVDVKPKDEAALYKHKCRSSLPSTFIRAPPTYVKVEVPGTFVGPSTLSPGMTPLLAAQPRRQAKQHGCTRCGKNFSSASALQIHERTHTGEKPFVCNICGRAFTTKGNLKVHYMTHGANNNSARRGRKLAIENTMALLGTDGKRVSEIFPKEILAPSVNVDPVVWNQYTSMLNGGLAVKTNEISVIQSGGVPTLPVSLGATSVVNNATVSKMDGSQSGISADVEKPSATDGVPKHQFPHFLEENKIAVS
For `ATCTCTGC`, the E-score was -0.0155.
For `ACCTTTCC`, the E-score was 0.157.
`ACTGGTCG` has an E-score of -0.25.
For `GGCAACGA`, the E-score was -0.152.
`TACTACTA` gave an E-score of 0.235.
For `AAAATGCT`, the E-score was 0.126.
For `AACGTAAC`, the E-score was 0.0927.
`CCATGGAC` gave an E-score of -0.28.

Further values, each from its own experiment
The fold induction of `PhoQ, residues 284 288 289 292 302 303 AANNSF` is reported as 13.2 (PhoP, residues 12 14 15 18 19 LWHVM (Escherichia coli, UniProt P23836); Sort-seq, item: YFP reporter; E. coli; PhoQ-PhoP variant library, added: 10 µM Mg2+; relative to: high Mg2+ state, higher = stronger signaling).

Some of these lines once more (sample 3):
For `GGCAACGA`, the E-score was -0.152.
`TACTACTA` gave an E-score of 0.235.
